Results of several laboratories.
Parts stem from different laboratories: compare values within a part only.

Sample 1 — technique: RNA Bind-n-Seq; molecule type: RNA; sample: in vitro; concentration: not given; notes: RNA with constant flanks, ends assumed; baseline: input RNA pool; direction: higher = stronger binding
Target: RING finger protein unkempt homolog, zinc fingers 1-6, GST-SBP tag (UNK, Homo sapiens, UniProt Q9C0B0, residues 30-357)
Chain of UniProt Q9C0B0 (30-357, looked up): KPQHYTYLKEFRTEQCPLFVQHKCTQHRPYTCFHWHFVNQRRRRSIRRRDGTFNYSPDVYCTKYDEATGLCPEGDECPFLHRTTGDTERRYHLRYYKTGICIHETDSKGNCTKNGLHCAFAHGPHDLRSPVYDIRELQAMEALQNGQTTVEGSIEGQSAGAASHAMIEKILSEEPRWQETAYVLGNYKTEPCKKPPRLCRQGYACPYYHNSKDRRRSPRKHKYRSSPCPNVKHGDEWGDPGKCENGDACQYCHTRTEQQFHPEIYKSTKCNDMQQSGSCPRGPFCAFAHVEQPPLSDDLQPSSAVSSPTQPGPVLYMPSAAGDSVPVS
All sequences stand within: GGGAGUUCUACAGUCCGACGAUC … CAACAGAGGAUUGAGCAUCA
Oligonucleotide	bound/input enrichment [ratio]
CUUGUCUACCAUAUUGGCCUCACCCCAGCCAAACUUCCUGACCUUGUGGAAAACAACCCUUCCGUCGCUAUAGAAAUGUUGCUGAAAUUAAUGCAGUCAAGCCAGAUCACUGAGUAUUUC	0.688
AAACCCCAGGCUGUUUCUUCAUUAAGUUCUAGUCAUUCCAGGUCUCAUGGGAAUGAUCACCACCGCAAGGAACAUCAGCGCUCCAAAUCACCUCGGGACCCUGAUGCCAACUGGGAUUCU	0.104
CAUUCUGAAUUUCAUAUAGUAUAAGUUAGACAUUGCUUAAUCCUUUUUUAAAUGUAUUUACACCGACACGAACACUCAAAUUGUUGGAUUUUUAAAACUAUAUCUGACAUAAUUUUUUUC	12.7
GUUAUGGGUGUGAGAGGUUUGCAAGGAUUUGUGGGAAGUACCUGCCCACAUAUAUGUACAGCCGUAAAUUUCAAAGAACUGGCAGAGCACCACCGAAGCAAGUAUCCUGGAUGUACCCCU	0.298
CGGGUCGGAGACUACGUUUAUUUUGAGAAUUCCUCCAGCAACCCGUACCUCAUCAGACGGACCGAGGAGCUCAACAAGACUGCAAGUGGCAAUGUGGAAGCAAAAGUCGUCUGCUUUUAC	0.14
GUUUUAAAGAAGGCACUUGAAAUUACAAAAGCAAGUCAUGUGACCCCUCAGCCAGAAGACCGUUGGAUCCCUUUACUUAUUAAUGCCAUUGAUCAUUGCAUGAAUAGAAUCAAGGAGCUC	0.19

Sample 2 — technique: protein binding microarray; molecule type: double-stranded DNA, one strand shown; sample: in vitro; concentration: not given; baseline: not given; direction: higher = stronger binding
Target: Histone acetyltransferase KAT6A, both winged helices, GST fusion (KAT6A, Homo sapiens, UniProt Q92794, residues 1-181)
Notes: 8-mer, flanks averaged, mean of 2 arrays, mostly near background
Construct (chain): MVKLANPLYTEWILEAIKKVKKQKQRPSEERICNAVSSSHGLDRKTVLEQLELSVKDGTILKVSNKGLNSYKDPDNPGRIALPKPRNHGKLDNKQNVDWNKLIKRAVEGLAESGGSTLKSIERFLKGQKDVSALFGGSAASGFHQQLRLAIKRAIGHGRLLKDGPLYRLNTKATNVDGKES
Oligonucleotide	E-score
ACCAATAA	-0.02
CTGACACC	-0.11
GAAGAACA	-0.0157
CCACACAC	-0.0284
ATTGGGGA	-0.221
CCATCAGG	-0.157
GCCTGGAC	-0.0811
AGATTTAA	-0.0125
GACACGAA	0.00709
GGATTTGA	-0.0374
AGCTCTCG	-0.0951
AACTGAGC	0.0177
ATCCGTTG	0.157
CCTGCTAG	-0.172
ACCTTGAA	-0.0997
ACAAGTGT	-0.104
AGCGGGAT	0.236
CGCTAGAG	0.201
AAAAGTAA	-0.146
CTTAGTAC	0.012
CGACAGAC	-0.023
ATCGTTCG	0.077
CTAACAGC	-0.125
GTATGAGA	-0.0569
GAGTTAGA	-0.0919

Sample 3 — technique: RNA Bind-n-Seq; molecule type: RNA; sample: in vitro; concentration: 365 nM; baseline: no-protein control; direction: higher = stronger binding
Target: RNA binding protein fox-1 homolog 2, RRM domain, GST-SBP tag (RBFOX2, Homo sapiens, UniProt O43251-10, residues 100-194)
Notes: natural RNA segment, single round, ends assumed
All sequences stand within: GGGAGUUCUACAGUCCGACGAUC … UGGAAUUCUCGGGUGCCAA
Oligonucleotide	RBNS enrichment (R)
AAUUGUUAUAACCACACCUUUUUGAAAUCUGCCCUACAAAAUUUGUUUGGCUUAAACGUCAAAGCCGUGACAAUUUGUUCUUUGAUGUGAUUGUAUUUCCAAUUUCUUGU	0.432
GAGUUGAAUUUAUAAAUGUCAUUUGCAACCAAAUGAAGUAUUUAUUUUUAAAAAGAGAGUGAAGGAACCAACACUGAUUUGUACAUAAUAAAAAUGUGUGUAUUAUAUAU	0.374
UUCAUUUACUACGAUCUGUCCACACUCGAAAAGUAGGCUACAUUAAAUCAUGCUAGCAGCCUUAAGAGGUAAAGCCAUUGGAGAGAAGUGUCAAGCAUGGGAGCUAAAAU	2.02
UACUCAUUGUUAGGAUCCUACUGCUGAAGGGUGCUAUGUCACUUUCUAGUGCUCUUAUAUGUCUUUAAUUAUAGGACUGGAAUGAAAAGCUUAACCAUACAGUAUUUCUA	0.393
ACUCAGCUCCCCUCCCCUGAAUUAUAUUUGUAUGCUGGGUGGCCUGGCUGAUGCUCAGAGGCCUCCUUAGAGAGGACACUCACUCCCCUCCCACCAGCUGGAUGCCCAUU	2.67
CACUGUUUUCUGGAAAUAAAGCCCUACUCUACAAAAAAAAUGAAGAUGGCUUGUGGGAAAAGAUCUCUUCUCCAGGAAGUUAAAAAACAUGAAUUACCAAAGAAAGCACC	0.372
UGUUAGAAUCUGCUCAUGUGUGUGUCACCAUGCCAAGCCAUGCCAGCCACAGACUGAGGCUUCCGGGUGAGGAACACCCUGGGGCUACUAUGUUUGUAGGUCUCAUGUGC	0.372
AGCCUUGUGUGUGGCCAGGGACACCUGGCUUCCCUCCCUACUGCCAAAUAAACCCCUAUGAACCUUGGAGCCAGCUUGGACUCCUACUUGCGCCUGGACUUGGGGGGGGG	0.555

Sample 4 — technique: RNAcompete; molecule type: RNA; sample: in vitro; concentration: 20 nM; notes: 7-mer, probes averaged, single round; baseline: mean of 7-mers; direction: higher = stronger binding
Target: PABPC1L2, full length, GST fusion (mouse, UniProt A0ABA7IW68)
Target sequence (chain): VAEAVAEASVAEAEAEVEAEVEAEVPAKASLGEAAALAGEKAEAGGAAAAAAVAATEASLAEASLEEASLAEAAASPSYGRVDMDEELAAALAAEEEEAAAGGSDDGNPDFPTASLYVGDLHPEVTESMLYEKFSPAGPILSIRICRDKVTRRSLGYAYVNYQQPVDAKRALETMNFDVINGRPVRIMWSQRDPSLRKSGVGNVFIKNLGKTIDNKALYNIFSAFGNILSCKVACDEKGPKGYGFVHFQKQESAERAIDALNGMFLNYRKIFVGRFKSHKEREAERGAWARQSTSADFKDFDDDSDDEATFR
Oligonucleotide	7-mer Z-score
CGCCAAC	-0.257
GGGAGAC	0.122
CGAGUAA	0.0388
GAAUCCG	-0.235
CCUACUU	-0.331
UUUCGGC	-0.414
UUGAUUU	-0.142
GUAAUCG	-0.121
GCUAAUC	-0.204
GCGGUCG	-0.0754
CCGGAAC	-0.137
UCACGCU	-0.383
AUAAUCC	-0.115
CAGUCAA	-0.202
AAAGGUG	1.06
CCAGUGG	-0.153
CAGUCAG	-0.209
UGCAAAC	0.158
UGCUCGG	-0.191
CCUUUGU	-0.418

Some of these lines once more (sample 4):
Oligonucleotide	7-mer Z-score
GUAAUCG	-0.121
GCUAAUC	-0.204
GCGGUCG	-0.0754
CCGGAAC	-0.137
UCACGCU	-0.383
AUAAUCC	-0.115
CAGUCAA	-0.202
AAAGGUG	1.06
CCAGUGG	-0.153
